Measurements from different studies.
Every numbered part comes from another study and shows a few of its results, in no order. Changes are numbered by the printed parent chain.

Set 1 — target: CCNF, cyclin fold, Cln2 fusion (human); technique: yeast growth competition, sequencing; matrix: yeast; setting: strong parent motif; baseline: not given; direction: higher = stronger binding; measurement: normalised enrichment score; starting sequence: viral docking peptide; KGVKRKLFAEDSS
Change = KGVKRKLFAENSS [D11N]; result = 8.2
Change = KGVKYKLFAEDSS [R5Y]; result = 0.246
Change = KGVKTKLFAEDSS [R5T]; result = 0.628
Change = KGVNRKLFAEDSS [K4N]; result = 8.25
Change = KGVKRKLCAEDSS [F8C]; result = 0.948
Change = KGVKAKAFAEDSS [R5A L7A]; result = 0.401
Change = KGVKRLLFAEDSS [K6L]; result = 5.97
Change = KGVKRKLFTEDSS [A9T]; result = 7.46
Change = KGIKRKLFAEDSS [V3I]; result = 7.59
Change = KGFKRKLFAEDSS [V3F]; result = 4.7
Change = KGVKRKLFAEDPS [S12P]; result = 8.39
Change = KGVKRKLFMEDSS [A9M]; result = 8.47
Change = KGVKRKLFAEDGS [S12G]; result = 7.56

Set 2 — effect on: binding; technique: phage display NGS; molecule type: peptide; tested at: concentration not given; setting: panning round 2; baseline: input library; measurement: enrichment fold change
Target: UDP-N-acetylglucosamine--peptide N-acetylglucosaminyltransferase 110 kDa subunit (OGT, Homo sapiens, UniProt O15294)
UniProt O15294, sequence (whole entry, looked up): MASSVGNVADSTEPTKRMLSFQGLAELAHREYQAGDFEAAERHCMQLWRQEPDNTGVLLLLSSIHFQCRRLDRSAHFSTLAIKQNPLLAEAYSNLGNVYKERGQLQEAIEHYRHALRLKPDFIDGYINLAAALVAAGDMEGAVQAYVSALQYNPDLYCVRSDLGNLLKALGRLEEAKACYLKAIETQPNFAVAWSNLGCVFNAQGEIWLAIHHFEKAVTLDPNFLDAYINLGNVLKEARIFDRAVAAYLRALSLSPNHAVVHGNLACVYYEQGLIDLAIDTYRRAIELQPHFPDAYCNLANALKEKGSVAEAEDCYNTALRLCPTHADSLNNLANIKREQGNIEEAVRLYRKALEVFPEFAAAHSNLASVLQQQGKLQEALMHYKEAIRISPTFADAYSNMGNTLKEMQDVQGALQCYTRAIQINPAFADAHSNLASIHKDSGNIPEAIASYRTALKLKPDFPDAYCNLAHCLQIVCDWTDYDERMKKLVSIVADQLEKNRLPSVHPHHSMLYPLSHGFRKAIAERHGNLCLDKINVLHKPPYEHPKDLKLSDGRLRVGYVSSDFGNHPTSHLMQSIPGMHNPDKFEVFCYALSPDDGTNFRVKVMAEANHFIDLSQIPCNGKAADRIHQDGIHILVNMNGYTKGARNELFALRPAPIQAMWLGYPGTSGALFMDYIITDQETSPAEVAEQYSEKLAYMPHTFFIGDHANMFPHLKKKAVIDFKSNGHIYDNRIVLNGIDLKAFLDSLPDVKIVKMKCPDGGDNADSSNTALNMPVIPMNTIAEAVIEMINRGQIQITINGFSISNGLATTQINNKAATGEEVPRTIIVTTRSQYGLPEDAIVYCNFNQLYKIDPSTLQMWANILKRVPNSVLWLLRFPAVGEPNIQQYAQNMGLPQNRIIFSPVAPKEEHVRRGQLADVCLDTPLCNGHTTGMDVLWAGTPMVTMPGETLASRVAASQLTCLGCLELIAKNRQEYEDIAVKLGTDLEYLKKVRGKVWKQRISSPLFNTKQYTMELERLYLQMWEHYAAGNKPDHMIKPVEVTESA
Sequence = TYKNDRYLPFYPIII; result = 13.5
Sequence = GVQDYLPMYQISMSN; result = 12.6
Sequence = HWVGTTHHSTMHNHD; result = 7.15

Set 3 — target: tungstate, free oxyanion; technique: microfluidic competitive inhibition; matrix: in vitro, cell-free expressed; tested at: not given; direction: lower = stronger binding; measurement: oxyanion analog dissociation constant
Setting: derived from inhibition constants, unchanged parent 2230 nM
Starting sequence: PafA, mature enzyme, eGFP fusion (Elizabethkingia meningoseptica, UniProt Q9KJX5); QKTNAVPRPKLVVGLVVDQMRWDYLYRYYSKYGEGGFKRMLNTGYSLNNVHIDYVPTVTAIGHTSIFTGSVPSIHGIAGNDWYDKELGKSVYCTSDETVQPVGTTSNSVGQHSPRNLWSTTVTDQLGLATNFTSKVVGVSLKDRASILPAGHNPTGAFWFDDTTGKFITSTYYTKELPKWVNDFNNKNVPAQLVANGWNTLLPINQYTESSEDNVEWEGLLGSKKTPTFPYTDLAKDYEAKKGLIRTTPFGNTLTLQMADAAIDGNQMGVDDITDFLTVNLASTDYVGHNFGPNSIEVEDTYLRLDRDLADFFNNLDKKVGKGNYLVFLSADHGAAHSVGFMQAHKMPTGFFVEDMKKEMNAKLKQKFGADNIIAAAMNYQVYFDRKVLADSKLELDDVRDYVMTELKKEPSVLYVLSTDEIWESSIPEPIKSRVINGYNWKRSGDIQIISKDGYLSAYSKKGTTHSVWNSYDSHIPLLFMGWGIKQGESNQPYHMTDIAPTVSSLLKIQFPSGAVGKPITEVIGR
Change = S30V; result = 2.32 µM
Change = M481G; result = 2.5 µM
Change = H345V; result = 2.16 µM

Set 4 — target: Sox-I, HMG box (Salpingoeca helianthica); technique: Spec-seq; molecule type: double-stranded DNA, one strand shown; matrix: in vitro; tested at: not given; setting: whole probe, mean of replicates; baseline: not given; direction: lower = stronger binding; measurement: relative binding energy; constant ends, left off below: GAGTCGTCTCGTCAGCAC … CCGTAGAGCACTCAGGTC
Target sequence (chain): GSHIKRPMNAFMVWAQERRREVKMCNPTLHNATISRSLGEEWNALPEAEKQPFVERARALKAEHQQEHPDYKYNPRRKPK
Oligonucleotide = TTACGTT; result = 0.872 ln ratio
Oligonucleotide = CATTTTT; result = 0.603 ln ratio
Oligonucleotide = CATAATA; result = -0.851 ln ratio
Oligonucleotide = AGGAGTT; result = 0.519 ln ratio
Oligonucleotide = TTAAGTT; result = 0.326 ln ratio
Oligonucleotide = CATTAAG; result = 0.257 ln ratio
Oligonucleotide = TTCTGTT; result = -0.734 ln ratio
Oligonucleotide = CATACCG; result = 0.556 ln ratio

Mixed results
Molecule = PhoQ, residues 284 288 289 292 302 303 TNASYF; target = PhoP, residues 12 14 15 18 19 NHTVL (Escherichia coli, UniProt P23836); assay = Sort-seq, measured: YFP reporter; system = E. coli; setting = PhoQ-PhoP variant library, added: 10 µM Mg2+; how to read = baseline: high Mg2+ state, higher = stronger signaling; measurement = fold induction; result = 8.74

Excerpt of the above (set 1):
Change = KGVKRKLFMEDSS [A9M]; result = 8.47
Change = KGVKYKLFAEDSS [R5Y]; result = 0.246
Change = KGVKRKLFAENSS [D11N]; result = 8.2
